Measurements gathered from unrelated publications.
Every numbered part comes from another study and shows a few of its results, in no order.

Series 1
Target: Sal-like protein 4, full length isoform A (SALL4, Homo sapiens, UniProt Q9UJQ4, residues 1-1053)
UniProt Q9UJQ4, sequence (whole entry, looked up): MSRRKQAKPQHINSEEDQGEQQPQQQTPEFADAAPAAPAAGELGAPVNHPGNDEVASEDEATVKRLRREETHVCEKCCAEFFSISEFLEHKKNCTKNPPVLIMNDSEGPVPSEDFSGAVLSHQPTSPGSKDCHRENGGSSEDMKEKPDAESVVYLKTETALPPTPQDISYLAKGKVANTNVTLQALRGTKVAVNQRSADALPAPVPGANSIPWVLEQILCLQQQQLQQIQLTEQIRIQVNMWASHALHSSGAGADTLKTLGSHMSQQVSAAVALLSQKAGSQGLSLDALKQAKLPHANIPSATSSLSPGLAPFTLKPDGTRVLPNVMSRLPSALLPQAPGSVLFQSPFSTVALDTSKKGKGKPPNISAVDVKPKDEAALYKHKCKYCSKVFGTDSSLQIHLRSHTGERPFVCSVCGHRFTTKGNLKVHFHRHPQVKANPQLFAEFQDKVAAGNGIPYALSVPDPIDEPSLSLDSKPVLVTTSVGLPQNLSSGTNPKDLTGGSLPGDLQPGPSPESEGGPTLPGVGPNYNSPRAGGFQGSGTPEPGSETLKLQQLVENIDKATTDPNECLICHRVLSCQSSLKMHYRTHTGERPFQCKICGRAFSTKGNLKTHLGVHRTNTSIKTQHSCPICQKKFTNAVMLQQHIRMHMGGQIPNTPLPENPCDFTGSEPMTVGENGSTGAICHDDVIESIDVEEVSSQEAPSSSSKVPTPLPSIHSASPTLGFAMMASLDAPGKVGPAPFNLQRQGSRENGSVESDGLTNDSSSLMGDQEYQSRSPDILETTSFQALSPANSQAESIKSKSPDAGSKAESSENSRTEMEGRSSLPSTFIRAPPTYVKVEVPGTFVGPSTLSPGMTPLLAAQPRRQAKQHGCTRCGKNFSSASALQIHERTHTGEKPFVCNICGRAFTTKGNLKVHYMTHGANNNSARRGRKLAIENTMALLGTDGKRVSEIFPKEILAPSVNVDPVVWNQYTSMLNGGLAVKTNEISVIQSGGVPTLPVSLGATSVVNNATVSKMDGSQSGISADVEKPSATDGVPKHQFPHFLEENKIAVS
Method: universal PBM
Molecule type: double-stranded DNA, one strand shown
Matrix: in vitro
Concentration: 600 nM
Setting: 8-mer, flanks averaged, mean of replicates
Reading: higher = stronger binding
Oligonucleotide	E-score
AACTATCC	-0.0604
CAGCTGAA	-0.0579
ATGTACCA	0.127
AATGGGTC	-0.0985
AAACGGAA	0.133
CACAATCA	0.0944
CAGCTCGA	-0.278
ACATCGTC	0.0284

Series 2
Target: cGMP-dependent protein kinase 1 (PRKG1, Homo sapiens, UniProt Q13976)
UniProt Q13976, sequence (whole entry, looked up): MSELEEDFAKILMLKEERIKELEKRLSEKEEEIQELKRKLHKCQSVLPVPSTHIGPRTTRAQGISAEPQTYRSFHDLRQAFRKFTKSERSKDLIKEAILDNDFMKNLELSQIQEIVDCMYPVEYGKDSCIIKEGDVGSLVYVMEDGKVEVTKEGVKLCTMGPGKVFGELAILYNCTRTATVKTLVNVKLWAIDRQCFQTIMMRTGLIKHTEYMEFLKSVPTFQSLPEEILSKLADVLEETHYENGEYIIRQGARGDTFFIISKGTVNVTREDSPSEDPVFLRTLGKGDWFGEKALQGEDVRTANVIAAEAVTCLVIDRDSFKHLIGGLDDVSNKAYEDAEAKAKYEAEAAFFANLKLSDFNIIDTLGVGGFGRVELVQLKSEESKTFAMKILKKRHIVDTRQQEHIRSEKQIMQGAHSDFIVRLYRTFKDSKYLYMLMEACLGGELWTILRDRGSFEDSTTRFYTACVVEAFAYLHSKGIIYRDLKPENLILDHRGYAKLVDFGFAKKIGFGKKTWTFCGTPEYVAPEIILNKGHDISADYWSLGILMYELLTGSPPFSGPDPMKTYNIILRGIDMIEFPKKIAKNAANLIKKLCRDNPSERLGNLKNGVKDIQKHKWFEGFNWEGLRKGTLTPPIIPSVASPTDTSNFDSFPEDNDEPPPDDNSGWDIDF
Effect on: enzyme activity
Action: inhibitor
Concentration: 0.5 µM
Relative to: control
SMILES	remaining activity [%]
N#CCCc1ccc2c(c1)-c1[nH]c3ccc([N+](=O)[O-])cc3c1CC(=O)N2	99.3
O=C(O)c1ccc2c3c1cccc3c(=O)n1c3ccccc3nc21	94
O=c1c2ccccc2[nH]c(=S)n1CCN1CCC(=C(c2ccc(F)cc2)c2ccc(F)cc2)CC1	102
O=C1NC(=O)c2cc(Nc3ccc(F)cc3)c(Nc3ccc(F)cc3)cc21	94.3
COc1cc2ncnc(Nc3ccc(F)c(Cl)c3)c2cc1OCCCN1CCOCC1	87.5
COc1cc2nccc(Oc3ccc(NC(=S)NC(=O)c4ccccc4C)cc3)c2cc1OC	91.6
Oc1ccc(-c2nc(-c3ccncc3)c(-c3ccc(F)cc3)[nH]2)cc1	90.4
OCC(O)CCON=C1C(c2c(O)[nH]c3ccccc23)=Nc2ccccc21 (stereo not shown)	45.1
O=S(=O)(c1cccc2cnccc12)N1CCCNCC1	79.6
COc1ccc(OC)c2c(=S)c3ccccc3[nH]c12	101
NCCNc1ncc(C(N)=O)c(Nc2cccc(C(F)(F)F)c2)n1	68.7
C#Cc1cccc(Nc2ncnc3cc(OCCOC)c(OCCOC)cc23)c1	85.6
COc1ccc(CNC(=O)Nc2ncc([N+](=O)[O-])s2)cc1	95.9
O=C(Nc1cccc(Nc2cc(Nc3cccc(C(F)(F)F)c3)ncn2)c1)C1CC1	96.4
Cn1sc(=O)n(Cc2ccccc2)c1=O	95.9
Cc1ccc(NC(=O)c2ccc(CN3CCN(C)CC3)cc2)cc1Nc1nc(-c2cccnc2)cs1	77.6

Series 3
Target: Interferon regulatory factor 3, full length, phosphomimetic (IRF3, Homo sapiens, UniProt Q14653, residues 1-427, S386D/S396D/S398D/S402D/T404D/S405D)
Method: protein-binding microarray
Molecule type: double-stranded DNA, one strand shown
Matrix: in vitro
Concentration: 2540 nM top
Setting: 60-bp whole probe
With: salmon DNA 0.4 mg/ml
Relative to: random background probes
Reading: higher = stronger binding
All sequences stand within: GCCTAGCAC … GTCTTGATTCGCTTGACGCTGCTG
Target sequence (chain): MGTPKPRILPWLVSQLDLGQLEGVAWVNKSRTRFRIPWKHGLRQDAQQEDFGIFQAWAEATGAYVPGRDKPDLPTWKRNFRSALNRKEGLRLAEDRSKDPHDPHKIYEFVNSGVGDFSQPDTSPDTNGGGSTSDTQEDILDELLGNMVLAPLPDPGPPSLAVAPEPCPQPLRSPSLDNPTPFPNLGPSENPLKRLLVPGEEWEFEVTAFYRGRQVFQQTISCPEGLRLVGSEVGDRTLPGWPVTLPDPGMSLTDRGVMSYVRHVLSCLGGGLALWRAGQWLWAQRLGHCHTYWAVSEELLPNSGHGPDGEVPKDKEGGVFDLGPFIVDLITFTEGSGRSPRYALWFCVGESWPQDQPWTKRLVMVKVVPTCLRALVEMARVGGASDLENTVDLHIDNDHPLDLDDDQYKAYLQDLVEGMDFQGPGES
Oligonucleotide	fitted relative affinity [z-score]
GACGATATCAGTTTCGAGCCGTGCTAG	2.34
GAAAGGTACCATGGTGGCTCGTGCTAG	0.566
ATAGGTTTCGGGACTGGGTTAGTGCTA	4.48
GACGGTTTCCTTCTCATGACGTGCTAG	9.75
GACGGTATCGGTATCGGTACGTGCTAG	5.24
GACGGTTTCGACTTTCGGAACGTGCTA	4.61
TTAAAACTGAGTCTCGATTAGTGCTAG	-0.333
TTAGGACTGCTTTTCCTTAAGTGCTAG	0.485

Series 4
Target: 5-hydroxytryptamine receptor 7 (HTR7, Homo sapiens, UniProt P34969)
UniProt P34969, sequence (whole entry, looked up): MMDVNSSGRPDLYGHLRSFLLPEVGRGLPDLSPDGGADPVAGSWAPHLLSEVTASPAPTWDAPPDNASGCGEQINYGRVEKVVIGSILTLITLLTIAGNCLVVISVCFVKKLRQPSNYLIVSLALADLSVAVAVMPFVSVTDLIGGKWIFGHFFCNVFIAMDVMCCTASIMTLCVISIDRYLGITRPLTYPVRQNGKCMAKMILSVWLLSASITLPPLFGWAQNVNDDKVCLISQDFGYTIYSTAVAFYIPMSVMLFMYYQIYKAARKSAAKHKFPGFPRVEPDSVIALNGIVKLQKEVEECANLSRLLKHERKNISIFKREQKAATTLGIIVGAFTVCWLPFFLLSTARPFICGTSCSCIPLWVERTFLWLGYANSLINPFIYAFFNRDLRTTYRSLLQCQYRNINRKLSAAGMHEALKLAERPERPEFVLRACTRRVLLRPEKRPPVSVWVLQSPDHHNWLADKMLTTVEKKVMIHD
Effect on: ligand displacement
Concentration: 10 µM
Compound	inhibition [%]
Cc1noc([C@H]2C[C@@H](c3ccc(C(F)(F)F)cc3)CN(C(=O)N3CCS(=O)(=O)C3)C2)n1	21.8
Nc1nc(NCc2ccccc2)nc(-c2ccccc2CO)n1	43.9
Cc1c(NC(=O)c2cc(C(N)=O)nc3cc(F)ccc23)c(C(F)(F)F)nn1Cc1ccc(C#N)cc1	2.31
CS(=O)(=O)N1CCCC(NC(=O)[C@H](CCC2CCCCC2)NC(=O)c2ccc(CNC(=O)c3cnc4ccccn34)cc2)C1 (stereo partly shown)	11.3
c1ccc(C2CCN(c3cnc4c(N5CCOCC5)nccn34)CC2)cc1	20.2

For quick reference, copied from above (series 4):
Compound	inhibition [%]
Cc1noc([C@H]2C[C@@H](c3ccc(C(F)(F)F)cc3)CN(C(=O)N3CCS(=O)(=O)C3)C2)n1	21.8
Nc1nc(NCc2ccccc2)nc(-c2ccccc2CO)n1	43.9
Cc1c(NC(=O)c2cc(C(N)=O)nc3cc(F)ccc23)c(C(F)(F)F)nn1Cc1ccc(C#N)cc1	2.31
CS(=O)(=O)N1CCCC(NC(=O)[C@H](CCC2CCCCC2)NC(=O)c2ccc(CNC(=O)c3cnc4ccccn34)cc2)C1 (stereo partly shown)	11.3
c1ccc(C2CCN(c3cnc4c(N5CCOCC5)nccn34)CC2)cc1	20.2
